Assay results gathered from unrelated publications.
Values joined by “and” are separate records of one study, mostly repeats; a detail may differ. Numbers after ± are the reported error.
TDP1: Tyrosyl-DNA phosphodiesterase 1 (TDP1, Homo sapiens, UniProt Q9NUW8)
Chain of UniProt Q9NUW8 (whole entry, looked up): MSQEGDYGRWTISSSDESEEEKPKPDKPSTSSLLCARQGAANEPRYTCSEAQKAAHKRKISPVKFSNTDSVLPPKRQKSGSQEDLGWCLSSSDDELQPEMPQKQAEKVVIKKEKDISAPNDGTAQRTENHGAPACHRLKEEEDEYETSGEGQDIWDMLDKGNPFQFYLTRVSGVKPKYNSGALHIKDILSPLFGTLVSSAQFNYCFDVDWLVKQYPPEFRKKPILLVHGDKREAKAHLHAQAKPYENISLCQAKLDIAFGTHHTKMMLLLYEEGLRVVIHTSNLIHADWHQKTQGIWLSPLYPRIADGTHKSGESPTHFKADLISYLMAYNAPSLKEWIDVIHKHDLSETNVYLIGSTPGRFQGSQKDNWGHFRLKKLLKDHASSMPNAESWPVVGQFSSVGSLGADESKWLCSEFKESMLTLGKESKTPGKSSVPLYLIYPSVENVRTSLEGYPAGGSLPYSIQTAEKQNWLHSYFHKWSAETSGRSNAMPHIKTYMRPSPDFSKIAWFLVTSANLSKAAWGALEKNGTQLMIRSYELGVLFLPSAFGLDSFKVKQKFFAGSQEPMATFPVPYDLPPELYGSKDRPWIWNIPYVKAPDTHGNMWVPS

Compound | target or system | assay | conditions | how to read | endpoint | result
O=C(C[Se]C(=O)c1ccccc1Nc1ccccc1)Nc1cccc(C(F)(F)F)c1 | NCI60 leukaemia subpanel | NCI60 five-dose screen |  |  | mean TGI | 4010 nM
COc1cc(N(C)CCN(C)C)c(NC(=O)/C=C/c2ccc3ccccc3c2)cc1Nc1nccc(-c2cn(C)c3ccccc23)n1 | NCI-H1975 | cell growth or viability, MTT | 0.5 µM, 72 h |  | inhibition | 70.1%
COc1ccc2c(c1)C(n1nnc3ccccc31)C1=C(CCCC1=O)O2 (stereo not drawn) | 3T3-L1 preadipocytes | adipogenesis, Oil Red O staining | IC20, 14 days, single replicate |  | lipid content | 0.702 OD492
N#Cc1cccc(/C=C/C(=O)c2ccc(O)cc2)c1 | U-87 MG | item: SNHG11 | concentration not given | baseline: untreated | mRNA level | 0.059 fold
Cc1nn(C)c(Oc2cccc(C(F)(F)F)c2)c1C=NOCc1ccc2nc(-c3ccccc3)c(Nc3ccc(C(=O)O)cc3)n2c1 (mixture of isomers) | TDP1 | enzyme activity, inhibitor | 100 µM, unpurified compound |  | inhibition | -1.5%
CO[C@@H]1[C@@H](OC(N)=O)[C@@H](O)[C@H](Oc2ccc3c(O)c(NC(=O)c4ccc(O)c(CC=C(C)C)c4)c(=O)oc3c2C)OC1(C)C | HCT-116 parental |  | 300 µM, replicate 1 |  | colony count | 0.1
COC(=O)c1cc(NC2=NC(=O)C(=Cc3ccc(N(C)C)cc3)S2)ccc1OC(C)=O | A549 | item: ODF2 | 2.93 µM, 24 h | baseline: DMSO | mRNA level | 0.0059 fold change
Cc1nc(C2CCN(C(=O)OC(C)(C)C)CC2)sc1C=NOCc1ccc2nc(-c3ccccc3)c(Nc3ccc(C(=O)O)cc3)n2c1 | TDP1 | enzyme activity, inhibitor | 100 µM, unpurified compound |  | inhibition | 1.6%
CC(C)Cc1ccc(C(C)C(=O)[Se]CC(=O)Nc2cccc(C(F)(F)F)c2)cc1 (stereo not drawn) | NCI60 CNS subpanel | NCI60 five-dose screen |  |  | mean TGI | 3530 nM
CN(C)CCN1CCN(c2ccc3nc(-c4ccc5nc(-c6ccc(C(F)(F)F)cc6)[nH]c5c4)[nH]c3c2)CC1 | HCT-15 | SRB | 10 µM, 48 h |  | growth percent | 91.6%
COc1ccc(CSC2C3=C(CCCC3=O)Oc3ccc(Br)cc32)cc1 (stereo not drawn) | 3T3-L1 preadipocytes | adipogenesis, Oil Red O staining | IC20, 14 days |  | mean lipid content | 0.866 OD492
Cc1cc(Cl)cc(-c2ccnc3cc(CN4C(=O)C5C(C4=O)C5(C)C)sc23)c1C[C@@H]1CNCCO1 (stereo partly drawn) | CHP-212 parental | Annexin V-PI flow cytometry | 1 µM, 48 h | baseline: cells | Annexin V-negative PI-positive cells | 2.9% and 2.57% and 4.44%
CC(C)c1ccc(N(C)c2ccc3c(c2)OCC[C@H]3CNc2cnccc2C(=O)O)cc1 | TE-1 | cell growth or viability, ATP luminescence | 7 days |  | IC50 | ≥ 10000 nM
Cc1cc(-c2ccc(NC(=O)CC[C@H](NC(=O)CN3CCN(CC(=O)O)CCN(CC(=O)O)CCN(CC(=O)O)CC3)C(=O)NCC(=O)N[C@@H](CC(N)=O)C(=O)N[C@H](C(=O)N[C@H](C(=O)N[C@@H](CCCNC(=N)N)C(=O)N[C@@H](CCC(N)=O)C(=O)O)C(C)C)C(C)C)c(C)c2)ccc1/N=N/c1ccc2c(S(=O)(=O)O)cc(S(=O)(=O)O)c(N)c2c1O [copper-64 labelled] | 143B osteosarcoma | gamma counting | 45 min, 37 °C, 0.74 MBq, radiolabelled | baseline: added activity per well | cellular uptake | 1.45 ± 0.17%
COc1ccc(Br)c2c1OC1=C(C(=O)CCC1)C2c1c[nH]c2ccccc12 (stereo not drawn) | 3T3-L1 preadipocytes | adipogenesis, Oil Red O staining | IC20, 14 days, single replicate |  | lipid content | 0.791 OD492 and 0.758 OD492 and 0.812 OD492
CNS(=O)(=O)Nc1nccc(Cc2c(C)c3ccc(Oc4ncccc4F)cc3oc2=O)c1F | WiDr | cell viability | 7 days |  | IC50 | 7.07 nM
COc1ccccc1-c1ccncc1C(=O)Nc1nnc(OCc2ccc(Cl)cc2)s1 | DLD-1 parental |  | 0.5 µM, mean of replicates |  | colony count | 68.5 and 79 and 80.5
CC(=O)Oc1ccccc1C(=O)[Se]CC(=O)Nc1cccc(C(F)(F)F)c1 | NCI60 melanoma subpanel | cell growth | 10 µM, 48 h, one-dose |  | mean growth percent | -50.9%
CCNc1cc2c(cc1C)C1(c3cc(C)c(NCC)cc3O2)c2ccccc2C(=O)N1N=Cc1c[c-]c(-c2ccccn2)cc1.Cc1c(C)c(-c2ccc(-c3ccccc3)cc2)[c-](C)c1C.[Cl-].[Ir+3] | A549 | PI flow cytometry | 1 x IC50, 24 h |  | G2/M phase cells | 13.65 ± 0.13%
Cn1ncc(-c2ccc3c(=O)[nH]nc(CN)c3c2)c1-c1c(F)c(Cl)cc(OC2CC2)c1C#N | 143B | cell viability, inhibitor, CellTiter-Glo | 120 h, baseline-subtracted |  | IC50 | 620 nM
COc1cc(N(C)CCN(C)C)c(NC(=O)/C=C/c2ccc(C(F)(F)F)cc2)cc1Nc1nccc(-c2cn(C)c3ccccc23)n1 | NCI-H1975 | cell growth or viability, MTT | 0.5 µM, 72 h |  | inhibition | 71.3%
O=C(c1cncc(N2Cc3cnn(Cc4ccc(F)cc4)c3C2)n1)N1CCOCC1 | HEK293 expressing GluA1 and GluA2 | glutamate excitotoxic cell death, CellTox Green | with: glutamate |  | IC50 | 855 nM
COc1ccc(NC(=O)c2ccc3[nH]c(-c4ccc(N(C)C)cc4)nc3c2)cn1 | HCT-116 | item: NFkB-luc luciferase reporter | concentration not given, unit not given | baseline: DMSO | reporter activity | 2.51

Compound | target or system | assay | conditions | how to read | endpoint | result
CCOC(=O)c1ccc(-n2c(N)c(C#N)c(SC)c(C#N)c2=O)cc1 | HepG2 | cell growth or viability, MTT | 6.25 µM, 24 h |  | viability | 79.4%
C=CC(=O)Nc1cc(Nc2nccc(-c3c(-c4cc(C)c(F)c(C)c4)n(C)c4ccccc34)n2)c(OC)cc1N(C)CCN(C)C | NCI-H1975 | cell growth or viability, MTT | 0.5 µM, 72 h |  | inhibition | 59.4%
CCc1n(CC(=O)O[C@@H]2C[C@H](C)CC[C@H]2C(C)C)c2ccccc2[n+]1C | HTS cells (mouse) | gene microarray, item: SLC7A3 | 1 µM, 6 h, unit not given | baseline: untreated | mRNA level | 2.61
Cn1ncc2cc(-c3cncc(Cl)c3N3CCC4(CCNC4=O)CC3)ccc21 | LS174T | gene expression, microarray, item: EMP1 mRNA | concentration not given, 24 h | baseline: untreated cells | log2 fold change | 1.34
CN(C)C(=O)c1cccc(N2Cc3cnn(Cc4ccc(F)cc4)c3C2)c1 | HEK293 expressing GluA1 and GluA2 | glutamate excitotoxic cell death, CellTox Green | with: glutamate |  | IC50 | 90 nM
Cc1ncsc1-c1ccc(C(C)NC(=O)C2CC(O)CN2C(=O)C(NC(=O)CCCCCCCCCCN2CCCC(Nc3ncc(Cl)c(Nc4ccccc4S(=O)(=O)C(C)C)n3)C2)C(C)(C)C)cc1 (stereo not drawn) | 22Rv1 | RNA-seq, item: MAF | concentration not given | baseline: DMSO | log2 fold change | -1.25
C=CC(=O)Nc1cc(Nc2nccc(-c3c(-c4ccc5cc(OC)ccc5c4)n(C)c4ccccc34)n2)c(OC)cc1N(C)CCN(C)C | NCI-H1975 | cell growth or viability, MTT | 0.5 µM, 72 h |  | inhibition | 59.9%
C1=[N+]2CCCC[N+]3=Cc4ccc5[n]4[Au-]23[n]2c1ccc2-c1nc2ccccc2nc1-5.F[P-](F)(F)(F)(F)F | HOP-62 | NCI60 five-dose screen |  |  | TGI | 5.23 -log M
CCN(CC)CC(=O)Nc1cccc(-n2cc(-c3ccc4ccc(-c5cn(-c6cccc(NC(=O)CN(CC)CC)c6)nn5)cc4c3)nn2)c1 | RCC4 | PCR angiogenesis array, item: EPHB4 | 5 x IC50, 4 h, normoxia | baseline: untreated | fold regulation | -1.4
COc1ccc2c(c1)c(CC(=O)[Se]CC(=O)Nc1cccc(C(F)(F)F)c1)c(C)n2C(=O)c1ccc(Cl)cc1 | NCI60 leukaemia subpanel | NCI60 five-dose screen |  |  | mean TGI | 4630 nM
NC(=O)c1ccc(-c2ccccc2Cl)c2c3c([nH]c12)CC[C@@H](N)C3 | A549 parental | cell proliferation |  |  | IC50 | 25.6 nM
COc1cc(N(C)CCN(C)C)c(NC(=O)/C=C/c2ccc3c(c2)OCCO3)cc1Nc1nccc(-c2cn(C)c3ccccc23)n1 | NCI-H1975 | cell growth or viability, MTT | 0.5 µM, 72 h |  | inhibition | 73.8%
O=[C]=[Mn-2]12(=[C]=O)(=[C]=O)[O]c3cc4c(cc3=[N+]1CCc1ccccc1)[O][Mn-2](=[C]=O)(=[C]=O)(=[C]=O)([N+]=4CCc1ccccc1)[n+]1ccc(cc1)C(=O)OCCOC(=O)c1cc[n+]2cc1 | HCT-15 | MTT | 50 µM, 48 h, photolysed compound |  | viability reduction | 92%
CCCCCCc1cccc([C@H](O)C[C@H](CO)NC(=O)CCCCCCCCCCBr)c1 | HeLa | CERT activity, HPLC-MS/MS lipidomics, item: lactosylceramide 16 | 1 µM, 24 h, not cell-number normalised |  | lactosylceramide level | 27700 pmol/sample and 30000 pmol/sample and 21100 pmol/sample
O=C(C[Se]C(=O)c1cc2ccccc2o1)Nc1cccc(C(F)(F)F)c1 | NCI60 melanoma subpanel | cell growth, inhibitor | five-dose |  | GI50 | 1660 nM
CN1CCCNC(=O)c2cccc(c2)C(=O)NCCCN(C)CCCNc2cccc3c2C(=O)c2cccc(c2C3=O)NCCC1 | SAS | RNA-Seq, item: SRSF4 mRNA | 1 µM, 6 h | baseline: untreated cells | log2 fold change | -1.4
O=C(C[Se]C(=O)c1cc2ccccc2s1)Nc1cccc(C(F)(F)F)c1 | HCC 2998 | cell growth or viability, SRB |  |  | GI50 | 460 nM
CCN(C(=O)c1cc(F)ccc1Oc1nncnc1N1CCC2(C1)CN([C@H](CCCN(C)CCOC)C(C)C)C2)C(C)C | C-33-A | cell growth or viability | 7 days |  | GI50 | > 10000 nM
O=C(C[Se]C(=O)c1ccc2ccccc2c1)Nc1cccc(C(F)(F)F)c1 | NCI60 melanoma subpanel | total growth inhibition, inhibitor | five-dose |  | mean TGI | 3340 nM
CC(=O)NCCCN(C)CCCNc1cccc2c1C(=O)c1cccc(NCCCN(C)CCCNC(C)=O)c1C2=O | SAS | RNA-Seq, item: FNDC8 mRNA | 1 µM, 24 h | baseline: untreated cells | log2 fold change | -2.5
O=C(C[Se]C(=O)c1ccc2ccccc2n1)Nc1cccc(C(F)(F)F)c1 | NCI60 melanoma subpanel | cell growth | 10 µM, 48 h, one-dose |  | mean growth percent | -84.4%
CN(C)C(=O)c1ccnc(N2Cc3cn(Cc4ccc(F)cc4)nc3C2)n1 | HEK293 expressing GluA1 and GluA2 | glutamate excitotoxic cell death, CellTox Green | with: glutamate |  | IC50 | 82 nM

Excerpt of the above:
Compound | target or system | assay | conditions | how to read | endpoint | result
C=CC(=O)Nc1cc(Nc2nccc(-c3c(-c4cc(C)c(F)c(C)c4)n(C)c4ccccc34)n2)c(OC)cc1N(C)CCN(C)C | NCI-H1975 | cell growth or viability, MTT | 0.5 µM, 72 h |  | inhibition | 59.4%
CCc1n(CC(=O)O[C@@H]2C[C@H](C)CC[C@H]2C(C)C)c2ccccc2[n+]1C | HTS cells (mouse) | gene microarray, item: SLC7A3 | 1 µM, 6 h, unit not given | baseline: untreated | mRNA level | 2.61
Cn1ncc2cc(-c3cncc(Cl)c3N3CCC4(CCNC4=O)CC3)ccc21 | LS174T | gene expression, microarray, item: EMP1 mRNA | concentration not given, 24 h | baseline: untreated cells | log2 fold change | 1.34
CN(C)C(=O)c1cccc(N2Cc3cnn(Cc4ccc(F)cc4)c3C2)c1 | HEK293 expressing GluA1 and GluA2 | glutamate excitotoxic cell death, CellTox Green | with: glutamate |  | IC50 | 90 nM
Cc1ncsc1-c1ccc(C(C)NC(=O)C2CC(O)CN2C(=O)C(NC(=O)CCCCCCCCCCN2CCCC(Nc3ncc(Cl)c(Nc4ccccc4S(=O)(=O)C(C)C)n3)C2)C(C)(C)C)cc1 (stereo not drawn) | 22Rv1 | RNA-seq, item: MAF | concentration not given | baseline: DMSO | log2 fold change | -1.25
